# Assay results of several laboratories.
# Every numbered part comes from another study and shows a few of its results, in no order.

# Block 1 — method: RNAcompete; molecule type: RNA; medium: in vitro; concentration: 20 nM; setting: 7-mer, probes averaged, single round; relative to: mean of 7-mers; reading: higher = stronger binding
# Target: PABPC1L2, full length, GST fusion (mouse, UniProt A0ABA7IW68)
# Construct (chain): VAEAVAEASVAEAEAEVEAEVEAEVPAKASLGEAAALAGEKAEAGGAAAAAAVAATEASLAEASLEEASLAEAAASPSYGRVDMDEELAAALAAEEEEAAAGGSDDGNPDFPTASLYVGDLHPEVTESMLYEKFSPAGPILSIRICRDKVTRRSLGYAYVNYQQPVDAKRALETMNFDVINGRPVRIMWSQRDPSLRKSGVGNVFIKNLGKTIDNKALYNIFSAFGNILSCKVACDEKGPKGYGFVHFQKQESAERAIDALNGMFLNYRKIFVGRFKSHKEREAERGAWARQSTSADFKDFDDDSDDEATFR
Strand,7-mer Z-score
UCGUAAU,-0.403
GACUAAA,1.17
CCAACCC,-0.358
UCCUAAG,-0.266
ACCCAAU,-0.213
AAUGGUU,-0.0138
UGGACUC,-0.0228
UAGCUCG,-0.335
UAACUGG,-0.132
CUUUCGU,-0.507
GCGUUAA,-0.148
GGCUCGU,-0.251
CCCGCGG,-0.423
UUUGGUU,-0.302
GCACAUU,-0.231
GACCGUU,-0.374
AUCCCCC,-0.527
GAACGGG,0.151
GAUCUAU,-0.148
UCGACGU,-0.18
ACGUUAU,-0.255
CCUUCCC,-0.507
ACCUUGA,-0.217
CGCCCUA,-0.38
GAUCGGG,-0.0101

# Block 2 — method: RNA Bind-n-Seq; molecule type: RNA; medium: in vitro; concentration: 365 nM; relative to: no-protein control; reading: higher = stronger binding
# Target: RNA binding protein fox-1 homolog 2, RRM domain, GST-SBP tag (RBFOX2, Homo sapiens, UniProt O43251-10, residues 100-194)
# Setting: natural RNA segment, single round, ends assumed
# Target sequence (chain): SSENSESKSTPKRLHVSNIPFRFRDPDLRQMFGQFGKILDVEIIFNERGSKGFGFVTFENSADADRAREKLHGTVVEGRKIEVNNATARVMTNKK
Strand,RBNS enrichment (R)
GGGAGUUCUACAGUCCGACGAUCGCUGGGGCCCCUCUGUCUCAACCCGCAGACCCUUGACUGAAUGAGAGAGGCCAGAGGAUGCUCCCCAUGCUGCCACUAUUUAUUGUGAGCCCUGGAGGCUCCCAUGUGCUUGGAAUUCUCGGGUGCCAA,0.32
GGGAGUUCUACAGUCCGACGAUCUUGCAUUUAGUCAAAAGAAAAAAUGCUUUAUAGCAAAAUGAAAGAGAACAUGAAAUGCUUCUUUCUCAGUUUAUUGGUUGAAUGUGUAUCUAUUUGAGUCUGGAAAUAACUGGAAUUCUCGGGUGCCAA,0.604
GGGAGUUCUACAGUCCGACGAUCUGUUUCCUAUUUAAUACAGCUGAAGUCAAAAUAUGUAAGAACACAUUUUAAAUACUCUACUUACAGUUGGCCCUCUGUGGUUAGUUCCACAUCUGUGGAUUCAACCAACCUGGAAUUCUCGGGUGCCAA,0.528
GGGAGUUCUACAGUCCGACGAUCUACCUUUUCUUCACCGUUGUCGUUACAUUGUUAGAAAAGCAACAGGAAAAAAUCCAAUUCAUUUGACCUAAAAACAAGCCUCAAGUUUAAAACCAAGCUCACGUUUUUCUUGGAAUUCUCGGGUGCCAA,0.471
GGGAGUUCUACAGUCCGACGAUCGCAACCAGCCUGAGUCGCGGUGAGGGGACGAGAGGUUGUACACACAUUGGUAGUUAUUUUGCACCAGCAGUGCCUUUCUCACUGGGGGUACUUGGACCCUCAGAUCUUCUUGGAAUUCUCGGGUGCCAA,1.1
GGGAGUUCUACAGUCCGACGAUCUUUUUAUUUAUUUUUUGUUAGGAAUUGGCCAAGAUCGCUAUGGAAAAAAUAAAAGAACAAACACAUAAAAAGGCUGAAGUCUCUCUUCCUUUUUCCCUUCCCUAUUUGUGUGGAAUUCUCGGGUGCCAA,1.49
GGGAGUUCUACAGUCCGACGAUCCACAAUGGGGUAAUCAGUUUGGAUAGAUGUAAAAAGAGCCAGAUAUGUCCUUCUCCAUGGCCAUGCCCUAACUGCAAUCUGUCAGAAUCAGUCAUUUUUAAAGAAAUUCUUGGAAUUCUCGGGUGCCAA,0.391
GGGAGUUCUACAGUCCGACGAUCUUGUGUGCGUGUACGUGUGCCCCUGUGUGUGGGCCCAGUUUUCAGGCAUGUAGAAUAAGCAUGGAGUCAUAUUGAGGAGGACUCACUUCUUGAAGAUAUGCUUGUUGCUUUGGAAUUCUCGGGUGCCAA,4.64
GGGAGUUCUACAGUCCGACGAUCGCAGCUGUGAUUGUCAAGGAUCAGCUGUAAUGACUUCCUUGUUGCCUCUCCUGAAGUAUCACUCUACUAAAUGGUUAACAAACCAAUACUUUUAAAAUUGUACCCAAACCUGGAAUUCUCGGGUGCCAA,1.06
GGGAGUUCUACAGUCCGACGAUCGACCUGUGGCCUGGUGGGACCAGGGCUUCAGGAGCCACAGGAUGGUACAAGCCUCGACAGACACGUUCUGUCAGCACUUGCCCCGGCCACCUCAUUCUGGUUUCAGUGUUUGGAAUUCUCGGGUGCCAA,0.241
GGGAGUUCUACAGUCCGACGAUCGUUCUUUGUGUAUCAUGCAUUUAAAAUGAGAUGGAAAAGCAUUAGCAUACUGUGUAAAUAUGGACCUUUUCAGAUUAAAACGUUAAUGGAAAUGCUUUUAACUCAAACAGUGGAAUUCUCGGGUGCCAA,0.307
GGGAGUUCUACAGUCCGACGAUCUAGGUAAACCGCUUGCCUUCAUCUUGAGUCGGAAUAUAUUUAAAUAAAUUGUGUUAUCUCUUGCCAAACAUUUUGUUAGUGUUUAUUUAAAAACAAAAUGUUGUUUCUUAUGGAAUUCUCGGGUGCCAA,0.774

# Block 3 — method: aptamer microarray, sandwich; molecule type: DNA with 2'F-ANA; medium: in vitro; concentration: 200 nM; added: Cy3 exosite-II aptamer, 400 nM; reading: higher = stronger binding; strand: GGTTGGTGTGGTTGG
# Target: Prothrombin, mature alpha-thrombin (F2, Homo sapiens, UniProt P00734)
# Setting: whole 15-mer aptamer, many near background
Modification,mean fluorescence intensity [a.u.]
2'F-ANA at 2 4 5 6 7 12 13 14,48.7
2'F-ANA at 1 2 4 8 13,109
2'F-ANA at 1 3 6 7 8 9 11 14 15,83.8
2'F-ANA at 2 3 4 12 14 15,361
2'F-ANA at 1 2 3 7 8 11,259
2'F-ANA at 1 2 3 4 5 8 12 15,120
2'F-ANA at 4 7 8 10 14 15,67.5
2'F-ANA at 1 3 7 8 12,708
2'F-ANA at 5 9 10 11 13,50.1
2'F-ANA at 2 4 5 6 8 10 11 12 15,57.3
2'F-ANA at 1 2 3 5 9 11,69.7
2'F-ANA at 1 3 5 6 7 13 14 15,55
2'F-ANA at 2 3 5 6 10 12 14,47.6
2'F-ANA at 2 4 6 7 9 10 13 15,70.3
2'F-ANA at 3 5 6 8 9 10 12 13 15,59.1
2'F-ANA at 2 4 5 6 7,70.6
2'F-ANA at 5 11 12 14,48.3
2'F-ANA at 2 4 6 7 13 15,186
2'F-ANA at 1 3 4 6 8 10 11 14,49.3

# Block 4 — method: RNA Bind-n-Seq; molecule type: RNA; medium: in vitro; concentration: 200 nM; setting: whole 134-nt RNA, ends assumed; added: 150 mM KCl; relative to: input library; reading: higher = stronger binding
# Target: Ras GTPase-activating protein-binding protein 1, full length (G3BP1, Homo sapiens, UniProt Q13283)
# UniProt Q13283, sequence (whole entry, looked up): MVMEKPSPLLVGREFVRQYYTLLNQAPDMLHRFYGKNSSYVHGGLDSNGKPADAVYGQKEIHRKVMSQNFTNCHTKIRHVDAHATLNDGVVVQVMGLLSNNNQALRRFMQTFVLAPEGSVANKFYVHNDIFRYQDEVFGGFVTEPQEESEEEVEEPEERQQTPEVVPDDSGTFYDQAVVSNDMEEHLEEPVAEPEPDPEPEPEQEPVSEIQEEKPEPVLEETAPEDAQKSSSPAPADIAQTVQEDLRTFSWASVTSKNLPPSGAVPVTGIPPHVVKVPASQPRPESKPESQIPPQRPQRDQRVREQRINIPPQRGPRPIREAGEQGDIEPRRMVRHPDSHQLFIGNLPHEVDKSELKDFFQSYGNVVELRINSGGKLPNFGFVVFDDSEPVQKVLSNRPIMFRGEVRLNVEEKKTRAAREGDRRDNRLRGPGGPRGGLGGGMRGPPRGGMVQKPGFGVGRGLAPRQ
Strand,log2 enrichment
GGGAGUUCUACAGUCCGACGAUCGCAGGAAGUAAAAACAAAUGGAAAUGCUUCGGAUAGUGGCAGGGGUGGGGUUUGCUAAGGAAAGGGUGGGAUGGGAGUGGGUAAAGAGUUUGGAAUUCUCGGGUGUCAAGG,0.776
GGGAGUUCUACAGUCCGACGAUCUUGUCCCGGAUGGGCAGCCUGCGGGCUCCCGUGGACGAGGACCGCCUGUCCCCGCUGGUGGCGGCCGACUCGCUCCUGGAGCAUGUGCGGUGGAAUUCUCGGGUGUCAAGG,-0.754
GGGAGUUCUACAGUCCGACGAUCUCCUCAAGUCCUGUGCUACACAUCGUAUGUACCGAAUCGGGGCGGGCGGCGGAAAGUAUUAUGUUACGCCGUUCGGAUCUGCACUUCCAGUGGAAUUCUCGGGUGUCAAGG,-0.285
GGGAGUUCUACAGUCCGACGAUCAGUCCUGUGCUACACAUCGUAUGUACCGAAUCGGUUUUGGGUUUUGGGGUUUUGGGGAAAGUAUUAUGUUACGCCGUUCGGAUCUGCACUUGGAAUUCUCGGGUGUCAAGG,-0.483
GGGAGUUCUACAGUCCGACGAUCACCAUGCAGGUGGGCAUCUUUGGGAAGUGGGGCAAGGGGGGGAUAGGGAGGGGGGUAACACUUUGGGAACAGGAGGUCCCAGGUCGUUUCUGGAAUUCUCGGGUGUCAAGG,0.806
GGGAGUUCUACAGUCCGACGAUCGCCACCAUGCCCACCUAGUUUUUGCAUUUUUAGUGGAGGUGUGGUUUCACUGUGUUGGCCAGGCUGGUCUCUUAACUCCUGACCUCAGGUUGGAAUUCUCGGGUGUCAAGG,-0.0601
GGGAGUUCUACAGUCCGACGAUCCAUAGACAACACGCACCCACACAGACACAGAGGGAAGGGGUUGGGAUGGGGACAGGGUGCACAGCAGGGCGGGGUAGGACCCCAGCCCCUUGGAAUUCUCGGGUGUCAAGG,1.92
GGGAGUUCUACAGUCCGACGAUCACCAUGCAGGUGGGCAUCUUUGGGAAGUGGGGCAAGGGGGGGAUAGGGAGGGGGGUAACACUUUGGGAACAGGUGGUCCCAGGUCGUUGCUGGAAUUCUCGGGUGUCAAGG,1.32
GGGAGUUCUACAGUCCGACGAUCCUGUGCUACACAUCGUAUGUACCGAAUCGGUUUUUUUGGGGUUUUUUUGGGUUUUUUUGGGAAAGUAUUAUGUUACGCCGUUCGGAUCUGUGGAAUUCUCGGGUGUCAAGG,-0.95
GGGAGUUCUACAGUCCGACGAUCGCAGGAAGUAAAAACAAAUGGAAAUGCUUCGGAUAGUGGCAGGGGUGGGGGUUGCUAAGGACAGGGUGGGAUGGGAGUGGGUAAAGAGUUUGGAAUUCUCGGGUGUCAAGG,1.04
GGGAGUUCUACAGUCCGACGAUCCACAGACAUCACGCACCCACACAGACACAGAGGGAAGGGGUUGGGAUGGGGACAGGGUGCACAGCAGGGCGGGGUAGGACCCCAGCCCCUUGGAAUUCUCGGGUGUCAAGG,1.78
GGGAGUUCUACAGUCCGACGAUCAGUCCUGUGCUACACAUCGUAUGUACCGAAUCGGGGAGGGGUUUGGGGUUUUUGGGGAAAGUAUUAUGUUACGCCGUUCGGAUCUGCACUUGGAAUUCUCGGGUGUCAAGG,0.337
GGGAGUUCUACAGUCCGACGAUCGUCCUGUGCUACACAUCGUAUGUACCGAAUCGGGGUUUUUGGGUUUUUGGUUUUUGGGAAAGUAUUAUGUUACGCCGUUCGGAUCUGCACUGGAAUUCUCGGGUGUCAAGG,-0.85
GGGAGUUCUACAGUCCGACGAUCUGGCCCUGGUGGCAUGCGGGGAGGAAGAGGUGGCCUCAUGGAUCGUGGUGGUCCCGGUGGAAUGUUCAGCGGUGGCCGUGGUGGAGACAGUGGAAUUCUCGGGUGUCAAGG,0.0788

# Block 5 — method: protein binding microarray; molecule type: double-stranded DNA, one strand shown; medium: in vitro; concentration: not given; relative to: not given; reading: higher = stronger binding
# Target: Histone acetyltransferase KAT6A, winged helix 2, GST fusion (KAT6A, Homo sapiens, UniProt Q92794, residues 85-181)
# Setting: 8-mer, flanks averaged, mean of 2 arrays, mostly near background
# Target sequence (chain): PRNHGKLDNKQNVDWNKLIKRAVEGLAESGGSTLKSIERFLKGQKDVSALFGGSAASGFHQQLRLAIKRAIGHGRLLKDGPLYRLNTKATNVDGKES
Strand,E-score
GAGCTGAA,-0.0101
ACGAGGGC,-0.00637
AGCGAACC,-0.00406
ATGCGCAA,-0.0508
CTAGTTCC,0.18
ACTGGTTA,-0.191
AAAGAACC,0.00437
AGATAAAT,-0.0593
CAGGTACA,-0.111
GAACCACC,-0.0411
GATGAGTA,-0.0482
CACCGTGA,-0.0458
CTCCAGGC,0.103
CGGAGTAA,0.0788
CGAACAGC,0.111
TCTCGTCA,0.065
AGCTCCAA,0.0895
CATTGTGG,-0.0197
ATCTACCC,-0.0578
CGCGTACG,0.0444
ATTCAAAG,-0.00138
AGTGCAGA,-0.1
AGTCACTA,-0.173
AGCAGCCT,-0.0474
AGAAAATA,0.0669

# Some of these lines once more (block 3):
Modification,mean fluorescence intensity [a.u.]
2'F-ANA at 4 7 8 10 14 15,67.5
2'F-ANA at 1 3 7 8 12,708
2'F-ANA at 2 4 5 6 7 12 13 14,48.7
2'F-ANA at 1 3 5 6 7 13 14 15,55
2'F-ANA at 1 3 4 6 8 10 11 14,49.3
